Measured values collected from several papers.
Each numbered part is a random draw from the data of one study; scales do not carry over between parts. Positions count from the first letter of the parent shown.

Set 1
Target: RING finger protein unkempt homolog, zinc fingers 1-6, GST-SBP tag (UNK, Homo sapiens, UniProt Q9C0B0, residues 30-357)
Sequence of UniProt Q9C0B0 (30-357, looked up): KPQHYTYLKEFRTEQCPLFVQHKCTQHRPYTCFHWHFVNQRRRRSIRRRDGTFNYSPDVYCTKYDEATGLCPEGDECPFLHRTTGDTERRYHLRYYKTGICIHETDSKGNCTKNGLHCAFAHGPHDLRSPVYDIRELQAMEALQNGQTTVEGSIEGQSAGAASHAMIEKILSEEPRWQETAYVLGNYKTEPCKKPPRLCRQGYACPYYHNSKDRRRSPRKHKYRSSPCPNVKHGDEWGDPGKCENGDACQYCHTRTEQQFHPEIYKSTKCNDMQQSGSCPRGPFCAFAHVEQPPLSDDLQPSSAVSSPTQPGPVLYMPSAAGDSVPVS
Method: RNA Bind-n-Seq
Form: RNA
Medium: in vitro
Concentration: not given
Notes: RNA with constant flanks, human and mouse sites, ends assumed
Baseline: input RNA pool
Reading: higher = stronger binding
All sequences stand within: GGGAGUUCUACAGUCCGACGAUC … CAACAGAGGAUUGAGCAUCA
Strand	bound/input enrichment [ratio]
UCGCAAAGAUUUAAGUAUCUUAUAAGAACUGUUUGCCAGUGCAAUUAUGAGAAGCUGUUUUAGGUUAUGUGAAAGAGAUGUUUCCUCAUCUCUAAGGCUUACCAGAAGCUCUGAUUUGAA	0.162
CAGAGAAGGGAAGAAAGUGAUCCUGAAUAUCGGUCCAGCAAAUCAAAGCCAUUGACCCUAUUAGAAUAUAAUUUAACUAUGGACACUGCAAAGCUGUUUAUGUCCUGCCUUCACGCCUGG	2.07
AAACCAACUAAAAAUAUGAUUAACAUUAUUAGCCGCCUACAAGAGGUCUUUGGUCAUGCAAUUAAGGCUGCAUAUCCAGAUUUGGAAAAUCCUCCUCUGCUAGUGACACCAAGUCAGCAG	0.618
GCUUCAAACUUGCAACGUGGAUUUCAUUUUUUUUUUUUUUUAAUUUAUUCUCUGGGAUCCCUUAGUAACCUGGCAUUGCUCAUUGCUCAUGAAUCCCUUAACAAUGGCGGAGCUGACGCG	2.52
GACCCAUAUUUCCACGAUCGUGUUGCUUCCUUCUAUGAAGGUCAGGUUGCAAUAUGGGAUCUUAGAAAAUUUGAGAAGCCAGUUUUGACAUUGACUGAGCAACCAAAACCCUUAACAAAA	0.513
GAAUACCAAAGUGAAGGACUUUGUGUCAUUCAGUAAAAUUUUCUUUUUUCAUAUCCUAAGUAGCUCCCAUUCCCUCACCUUUUCAAUCAGAAUUAACAAAUUCAAGCCUUCAGUAAAGUA	0.36
CACUGUUUAAUCUCUUCAGUGAAAUAAAUAGUCCUGGUGACAGGCAAUCUAUUGGUUUAGAGGAAAGGUCCUUAAGAAGUGUUGGAAACUAACUUUGGAUCUGUUCUUAGCUGUUGUUUU	0.306
AACCGGAAGGGCCUGAUAGCCGCCAUCUGUGCAGGUCCUACUGCUCUGUUGGCUCAUGAAAUAGGUUUUGGAAGUAAAGUUACAACACACCCUCUUGCUAAAGACAAAAUGAUGAAUGGA	0.44
GACCCCAUGGCAUCCCCACGAACCAUAACUAUCAUGGCCCUCUCAGUGGCCCUGGGACUCUUCUUUGUUUUCAUGGGGACCAUCAAGUUGACCCCCAGGCUCAGCAAGGAUGCCUACAGU	0.138
CACAGGUGUGGCAGUGCACCCACUUCCAAAUCUCAUAUUUUCAAACACAUUUUUUUUGUGUGUAUGGUCCCCAAUUUUAAUGUACAAAGAUAUUGCAAUACAAUGCUUUGCUUUAAAAUA	0.184
GAGGUCCUGCAGUGGCGCCAGUCCCUGGACAAGCUUCUCCAGAACAGCUAUGGAUUUGCCAGCUUCAAAAGUUUCCUGAAGUCUGAAUUCAGUGAGGAAAACCUUGAGUUCUGGGUUGCC	0.276

Set 2
Target: CCND3, cyclin fold, Cln2 fusion (human)
Method: yeast growth competition, sequencing
Medium: yeast
Notes: weak parent motif
Baseline: not given
Reading: higher = stronger binding
Starting sequence: GMNC docking peptide (human); KNAKRNLSSEFAN; partner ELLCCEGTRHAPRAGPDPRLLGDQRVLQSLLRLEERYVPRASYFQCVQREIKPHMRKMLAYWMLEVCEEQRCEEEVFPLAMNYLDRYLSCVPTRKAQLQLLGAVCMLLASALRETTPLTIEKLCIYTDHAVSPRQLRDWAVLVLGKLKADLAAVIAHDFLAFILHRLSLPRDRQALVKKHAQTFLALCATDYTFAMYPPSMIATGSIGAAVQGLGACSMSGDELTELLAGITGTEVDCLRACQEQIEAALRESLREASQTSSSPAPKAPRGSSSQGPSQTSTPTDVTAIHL
Variant	normalised enrichment score
KNAKRNSSSEFAN [L7S]	0.29
KNAKRNLSSEFNN [A12N]	0.0211
KNAKRNISSEFAN [L7I]	0.332
KNMKRNLSSEFAN [A3M]	0.143
KNAKRNESSEFAN [L7E]	0.0301
KNAKRNTSSEFAN [L7T]	0.12
KNAKRNLSHEFAN [S9H]	-0.252
KMAKRNLSSEFAN [N2M]	0.267
KNAKRNLSVEFAN [S9V]	0.0129
KNAKRNKSSEFAN [L7K]	0.164
KIAKRNLSSEFAN [N2I]	0.114
KNAPRNLSSEFAN [K4P]	0.318
KNAKRNLQSEFAN [S8Q]	0.816
KNAKRNLSSEQAN [F11Q]	0.145
KNAFRNLSSEFAN [K4F]	0.34
KNAKRTLSSEFAN [N6T]	0.573

Set 3
Target: RNA binding protein fox-1 homolog 2, RRM domain, GST-SBP tag (RBFOX2, Homo sapiens, UniProt O43251-10, residues 100-194)
Method: RNA Bind-n-Seq
Form: RNA
Medium: in vitro
Concentration: 365 nM
Notes: natural RNA segment, single round, ends assumed
Baseline: no-protein control
Reading: higher = stronger binding
All sequences stand within: GGGAGUUCUACAGUCCGACGAUC … UGGAAUUCUCGGGUGCCAA
Residues (chain): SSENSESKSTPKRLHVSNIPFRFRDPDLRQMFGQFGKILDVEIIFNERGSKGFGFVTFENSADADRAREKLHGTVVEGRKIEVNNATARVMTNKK
Strand	RBNS enrichment (R)
GUCUUCAUGGACUUUUGGGGUUUCUUAGUGUUGGAUUUUUGGGGUUUCUCAUUUACUUUUUACUCUUAAUACUAAUGCUUAUGUGUUUCACUGAGUAUCAAAACUGCCAA	0.442
GGCAUCCCAAGUGGGGUCCUCACCCAUCCCAGCUACUGCAGCUCUGUAUUACUUUGUCAUUUCCUGUUGUCUCACUCCUGAGGGCUCCUGCAGUAACUCUGUACUUCUCU	0.526
GUCUCAUUCCAUGACUAUAGGUGAGAGAAUUCUUUCCUAAGAGGGUUUGAUACCAAUAGGGGAAAAUGUAAAAUGUUCAGUCUUUAUGACAACCUGGCAUAAAGGAGUCA	0.288
UCUCCAGUCCUCUUUCUGGAAUAGGAAACUCCCAAUAUUUAACCUUCAUUCAUCCUUAACGGUGUGGAAGGGUUGAUGGACUGGAAAGCAAGUGGUUGGUUCGCGUUGGC	0.73
UGGGGAAGUGAUCUUUUGUUCCCAUCCUCUUCUUUUAGCAGUAAAAUAGCUGAGGGAAAAGGGAGGGAAAAGGAAGUUAUGGGAAUACCUGUGGUGGUUGUGAUCCCUAG	0.201
ACAUAUAAAAAGGAGACAUGAGAAAGUACUUUUCUCUAGAGCUCCAACACUACUGGCUCUUGCUUUUCUCAAUCCCCAAAGCUUCCCUUGUGACUUCUUAAGGCUCUGUA	0.428
UCAAAAACGAAAGCACACCACCCAAGACACAGUACCCAGUCAUGGUUUCCCCAUCCAACUAUUAGUUUCAUACUUUGAAAACUUACUUUCAGAUUAUUCUCAAAGAACAC	0.622
AUGUCGGAUGCACCCAAGUCCUUAGCCCAGCUGUGCCACCUGCAGGAGUUCGCUCUUGCGUUUCUUCCCCUCCCCAAGAAGGGAGGGGGCUACUUCAGGCCCUUCUGUGU	0.38
AGUCUGCACACCUACUCUGCCUGUGGAAGCAGCACCUGGGCCUCCUGCCUGCUUUCCUCAAGACGAGAGAGACCCCAGACUGUGUGUGGUUCAUUAGAGCAGUCUGGCCA	0.402
CCCCCUCUCAUCCCGGAAGAAGAGGAAGAAGCAGAACAGACUAGUUUUGAGUAAACUCAGUAUGCAUGUGUGAAUGCUGAAUCACAGGAAUGGUGUUGAGGCUACCAAGA	15.5
AAAGCCAAGGGUGGUGUCCAUUUCUGGGAAUGGUUAAACACAAAAGGCUGAUAGCUGGUAUCACAUAGUUGGAGUCAGUGCAUAAUUCCAAGUGGCUUUUUUUUUUUUUG	0.551
UCUCGACCAUUCCGUGUUGGCUGUGUCGCCUGACCUGCGUACCUGUGGAGGAUUCGGAACAAGUCAUGGAGAGACUGUCCGGGUCCGCUCCUUGUGAACUGUGCAGAAGG	0.506

Set 4
Target: ABI1, truncated, D143A, DHFR fusion (Arabidopsis thaliana)
Method: DHFR PCA, deep sequencing
Medium: yeast
Notes: methotrexate growth selection, single substitutions
Together with: (+)-ABA 2500 µM
Baseline: wild-type fitted maximum
Reading: higher = stronger binding
Starting sequence: PYL1, truncated, DHFR fusion (Arabidopsis thaliana); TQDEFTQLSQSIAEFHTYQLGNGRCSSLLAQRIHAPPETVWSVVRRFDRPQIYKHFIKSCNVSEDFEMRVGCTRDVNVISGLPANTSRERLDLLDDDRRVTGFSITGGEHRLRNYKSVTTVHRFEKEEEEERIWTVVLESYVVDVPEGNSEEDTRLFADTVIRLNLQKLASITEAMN
Variant	relative binding score
L29F	77.8%
V136E	86.4%
L93N	94.2%
P36V	91.1%
R32L	85%
A158V	98.4%
L166P	19.1%
V142H	92.8%
K126T	108%
E67F	92.9%
E129D	97.3%
H16C	39.2%
E174G	93.6%
E139S	94%
S150E	88.3%
Y18S	96.4%

Set 5
Target: Histone acetyltransferase KAT6A, both winged helices, GST fusion (KAT6A, Homo sapiens, UniProt Q92794, residues 1-181)
Method: protein binding microarray
Form: double-stranded DNA, one strand shown
Medium: in vitro
Concentration: not given
Notes: 8-mer, flanks averaged, mean of 2 arrays, mostly near background
Baseline: not given
Reading: higher = stronger binding
Construct (chain): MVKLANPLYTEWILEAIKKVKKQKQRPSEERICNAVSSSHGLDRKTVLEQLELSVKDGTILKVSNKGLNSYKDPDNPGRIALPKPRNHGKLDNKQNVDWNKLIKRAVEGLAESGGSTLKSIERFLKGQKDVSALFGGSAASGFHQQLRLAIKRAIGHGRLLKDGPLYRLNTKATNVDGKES
Strand	E-score
ACGACCAG	-0.102
TAGGAGGA	-0.206
CCAGACGC	0.161
CACAACGA	0.0923
GCTTGCCC	-0.0158
GCGCGATA	0.307
AAACCTCA	-0.0597
AAACATGA	0.0412
AAACGAAA	0.0152
GATGTTGA	0.0166
AGTACAAT	0.0169
CAATAAAG	-0.042
ACCCCTCC	-0.193
AACTGTCT	-0.11
ATCGAGTC	-0.0632
CTAGCGAG	0.0242
GCAAACCA	-0.151
GTCCGAGA	0.128
GCTCCCCA	-0.218
CAATTCCA	-0.191
AGCCGACT	0.0425

Excerpt of the above (set 4):
Variant	relative binding score
V136E	86.4%
L93N	94.2%
P36V	91.1%
R32L	85%
A158V	98.4%
L166P	19.1%
V142H	92.8%
K126T	108%
